Measurements pooled from the literature.
Every numbered part comes from another study and shows a few of its results, in no order.

Sample 1 — method: protein binding microarray; form: double-stranded DNA, one strand shown; sample: in vitro; concentration: not given; relative to: not given; direction: higher = stronger binding
Target: Histone acetyltransferase KAT6A, winged helix 1, GST fusion (KAT6A, Homo sapiens, UniProt Q92794, residues 1-85)
Notes: 8-mer, flanks averaged, mean of 2 arrays, mostly near background
Construct (chain): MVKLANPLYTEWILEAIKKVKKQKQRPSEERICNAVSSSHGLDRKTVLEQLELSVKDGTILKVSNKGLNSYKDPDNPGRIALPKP
Strand | E-score
GAGATGTA | -0.135
ATCACCCG | 0.267
CCGGGTTA | 0.262
CTGAGCAC | -0.179
AGCGCCTA | 0.191
AGGCATTA | -0.229
CCCCTCTC | -0.2
ATCAAAGG | 0.00934
CGGTACGC | 0.375
TGCACGAA | -0.069
CATAACAC | -0.216
ACATTTTG | -0.299

Sample 2 — method: universal PBM; form: double-stranded DNA, one strand shown; sample: in vitro; concentration: 600 nM; direction: higher = stronger binding
Target: Sal-like protein 4, full length isoform A (SALL4, Homo sapiens, UniProt Q9UJQ4, residues 1-1053)
UniProt Q9UJQ4, sequence (whole entry, looked up): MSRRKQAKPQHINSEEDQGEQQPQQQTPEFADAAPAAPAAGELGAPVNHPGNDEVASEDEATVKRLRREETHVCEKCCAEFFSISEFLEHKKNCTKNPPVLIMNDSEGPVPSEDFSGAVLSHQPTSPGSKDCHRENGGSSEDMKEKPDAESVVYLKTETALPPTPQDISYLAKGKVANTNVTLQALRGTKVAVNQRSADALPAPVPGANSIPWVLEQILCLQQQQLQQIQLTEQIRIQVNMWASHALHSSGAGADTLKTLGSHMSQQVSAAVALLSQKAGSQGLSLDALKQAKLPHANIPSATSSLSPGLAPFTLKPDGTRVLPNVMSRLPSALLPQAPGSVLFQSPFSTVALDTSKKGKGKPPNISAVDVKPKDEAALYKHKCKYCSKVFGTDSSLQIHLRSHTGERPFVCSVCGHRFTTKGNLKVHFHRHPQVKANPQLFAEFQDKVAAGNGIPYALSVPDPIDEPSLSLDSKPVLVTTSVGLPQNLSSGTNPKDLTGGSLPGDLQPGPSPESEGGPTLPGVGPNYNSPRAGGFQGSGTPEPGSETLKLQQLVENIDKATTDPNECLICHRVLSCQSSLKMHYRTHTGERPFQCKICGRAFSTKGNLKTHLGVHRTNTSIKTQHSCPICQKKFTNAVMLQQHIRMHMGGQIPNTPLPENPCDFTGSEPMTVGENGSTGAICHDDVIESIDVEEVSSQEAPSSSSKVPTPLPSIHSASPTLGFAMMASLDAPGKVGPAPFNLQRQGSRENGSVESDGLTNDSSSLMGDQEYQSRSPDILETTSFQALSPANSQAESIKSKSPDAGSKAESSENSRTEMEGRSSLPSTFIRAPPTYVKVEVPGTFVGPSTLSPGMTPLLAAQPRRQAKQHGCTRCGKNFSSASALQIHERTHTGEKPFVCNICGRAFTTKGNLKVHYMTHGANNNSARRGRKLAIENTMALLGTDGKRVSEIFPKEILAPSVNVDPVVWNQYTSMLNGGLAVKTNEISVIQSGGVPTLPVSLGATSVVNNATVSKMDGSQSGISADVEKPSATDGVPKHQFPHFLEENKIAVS
Notes: 8-mer, flanks averaged, mean of replicates
Strand | E-score
AACAGATG | 0.0723
GATACCCC | -0.194
ATAGGAGA | 0.0444
ACATACCG | 0.0372
ATCTGATC | 0.102
GGGACACA | -0.209
GGACCCAC | -0.265
CGTGGGTA | -0.286
TCACAAAA | 0.152
GGGATCAC | -0.263
ATTCCCTG | 0.0146

Sample 3 — method: RNA Bind-n-Seq; form: RNA; sample: in vitro; concentration: 200 nM; notes: whole 134-nt RNA, ends assumed; together with: 150 mM LiCl; relative to: input library; direction: higher = stronger binding; library: 7-deaza-guanosine replaces G
Target: Fragile X messenger ribonucleoprotein 1, C-terminal low-complexity region (Fmr1, Mus musculus, UniProt P35922)
Strand | log2 enrichment
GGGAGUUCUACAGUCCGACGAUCUGUACUCGGAAGUUUCACUUACCAUCGACCACUCUCUGAUUCCGGAGGAGAGGCUCUCGCCCACCCCAUCCAUGCAGGAUGGGCUCGACCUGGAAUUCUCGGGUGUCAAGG | 0.843
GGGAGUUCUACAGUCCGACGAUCUCCUGUGCUACACAUCGUAUGUACCGAAUCGGUUUUUUUGGGUUUUUUUGGUUUUUUUGGAAAGUAUUAUGUUACGCCGUUCGGAUCUGCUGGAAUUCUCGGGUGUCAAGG | -0.202
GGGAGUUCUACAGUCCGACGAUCUAACUUUAGAGGAGGAUCUGAUGGAUAUGGGAGUGGACGUGGAUUUGGGGAUGGCUAUAAUGGGUAUGGAGGAGGACCUGGAGGUGGCAAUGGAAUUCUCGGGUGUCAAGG | 0.575
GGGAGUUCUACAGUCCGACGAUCAGUCCUGUGCUACACAUCGUAUGUACCGAAUCGGGGAAAAAAAGGGGUGGGGUGGGGAAAGUAUUAUGUUACGCCGUUCGGAUCUGCACUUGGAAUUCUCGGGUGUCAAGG | -0.378
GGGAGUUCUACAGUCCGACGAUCACCAUGCAGGUGGGCAUCUUUGGGAAAAAGGGCAAGGGGGGGAUAGGGAGGGGGGUAACACUUUGGGAACAGGUGGUCCCAGGUCGUUUCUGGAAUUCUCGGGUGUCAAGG | 1.19
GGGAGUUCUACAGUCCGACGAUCACCAUGCAGGUGGGCAUCUUUGCGAAGUGGGGCAAGGGGGGGAUAGGGAGGGGGGUAACACUUUGGGAACAGGUGGUCCCAGGUCGUUUCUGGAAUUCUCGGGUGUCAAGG | 1.08
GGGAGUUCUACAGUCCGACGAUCUUCACUCUUUGAAGGAACGUGGUACUUAGUUAGGGUGGAUGAAAAGCACAGAAGAACUUACGCUCGGCGUCCCACUCCAAAUGAUGACACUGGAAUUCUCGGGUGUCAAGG | 0.623

Mixed results
Molecule | target | assay | system | setting | scale | endpoint | result
PhoQ, residues 284 288 289 292 302 303 AMDMFI | PhoP, residues 12 14 15 18 19 SYFRT (Escherichia coli, UniProt P23836) | Sort-seq, item: YFP reporter | E. coli | PhoQ-PhoP variant library, together with: 10 µM Mg2+ | relative to: high Mg2+ state, higher = stronger signaling | fold induction | 2.22

Excerpt of the above (sample 1):
Strand | E-score
CCCCTCTC | -0.2
CCGGGTTA | 0.262
ACATTTTG | -0.299
